Measurements pooled from the literature.
Numbered parts are unrelated; each lists some results of a single study. Positions count from the first letter of the parent shown.

Series 1 — technique: protein binding microarray; form: double-stranded DNA, one strand shown; matrix: in vitro; concentration: not given; baseline: not given; direction: higher = stronger binding
Target: Histone acetyltransferase KAT6A, both winged helices, GST fusion (KAT6A, Homo sapiens, UniProt Q92794, residues 1-181)
Setting: 8-mer, flanks averaged, mean of 2 arrays, mostly near background
Residues (chain): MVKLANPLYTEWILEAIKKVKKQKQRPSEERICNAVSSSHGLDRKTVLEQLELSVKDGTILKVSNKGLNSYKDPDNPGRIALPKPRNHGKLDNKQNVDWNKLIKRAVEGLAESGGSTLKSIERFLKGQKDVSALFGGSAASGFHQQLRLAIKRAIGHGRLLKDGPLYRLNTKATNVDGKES
Oligonucleotide | E-score
TCTAGAGA | -0.213
GGTTAACC | -0.0223
CGGATAAA | 0.213
GCAGCGCC | 0.246
AGATGCAC | -0.0514
AAGAGTGT | -0.175
GCATATCA | 0.0962
CCAGCGAG | -0.0963
AGTTTAGA | -0.214
GATACATC | -0.0717
GGACCGAC | 0.133
ACACTCCG | 0.0539
TCGTACGA | 0.0398
ATAAGGGA | -0.234
AGCAAAAA | -0.174
CTGAACTA | -0.00997
CTCCCACA | -0.103
GACACTAA | -0.00103

Series 2 — technique: RNA Bind-n-Seq; form: RNA; matrix: in vitro; concentration: not given; setting: RNA with constant flanks, ends assumed; baseline: input RNA pool; direction: higher = stronger binding
Target: RING finger protein unkempt homolog, zinc fingers 1-6, GST-SBP tag (UNK, Homo sapiens, UniProt Q9C0B0, residues 30-357)
Shared flanks, not repeated: GGGAGUUCUACAGUCCGACGAUC … CAACAGAGGAUUGAGCAUCA
Residues (chain): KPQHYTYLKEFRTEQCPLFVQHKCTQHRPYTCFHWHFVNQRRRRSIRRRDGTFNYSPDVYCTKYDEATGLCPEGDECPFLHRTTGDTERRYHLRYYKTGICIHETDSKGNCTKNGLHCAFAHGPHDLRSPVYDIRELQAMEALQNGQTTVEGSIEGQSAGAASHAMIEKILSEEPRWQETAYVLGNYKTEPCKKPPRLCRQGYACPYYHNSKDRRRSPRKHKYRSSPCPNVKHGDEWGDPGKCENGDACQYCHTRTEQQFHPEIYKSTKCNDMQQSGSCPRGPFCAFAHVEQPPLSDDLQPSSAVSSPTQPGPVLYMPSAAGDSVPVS
Oligonucleotide | bound/input enrichment
GGCACUGACCUGCCAUGCCUCGCCUGGAGGCUCAGCUGUGGGCAUCCCUCCAUGGGGUUCACCGAAAUAAGUGCAAUUUCUACACCCCCGAAACAAUUCAAAGGGAAGCAGCAUUUCUUG | 0.129 ratio
CAAGGCAUCUGUCCUGAAAGCUGCUAAUCUAUGGUCUAGUGAAUUUAUAUUAUAUGCAGACCGUAAUGAACUGGGAGAUCAAUGAACAGCAAGGGUGAUACCACAUUGCAAAAUGGAAGC | 0.313 ratio
AGCCACUUCAACCACUGAUGGUCAUUAAAACUCCUUUUUCACUAACUGAACCAGCAGGUCUCCGGGCUGGAGACAGCAUUUGAUCAUAGUGGACGUUGUUACAAAGACACACUGAGUCUA | 0.106 ratio
UGUACCGACCUUCUGAACAAGGCCAACACCUAUGCAGAGCAACAUUUUGCAGAUGUUGUACUCCGUGAAGAAUUUCUCAAUCUUGGCAUCGAACAAGUGUGCAGCUUAAUCUCAAGUGAC | 0.0597 ratio
GCGGUCCCCACGGUCCUGGUAACCCCCCUGGGCGCCCUUGGAGUACCGUUCGGGUCCAUUUCCGCUUCCUAUCUCCUGAAGGAAAAGCUCAACAUCUUGGGCAAGUUGGGGUGCCUGCUA | 0.19 ratio
CAGCCGCGUAUACCACUCCUGGGGCAGGGCGGGAGAGUAUUGUCUGUCCUAGAGUUUUGCCCGCACCUUUUUAAAGUGAUCUUAGCUUGCUUCUUAUGUGGGAACUGCCUAGACUUCCUA | 0.147 ratio
UGUUUUGCACGUAUGGUUGGAUGUACUGGAAAAGUCAUAGGAAUUGAUCACAUUAAAGAGCCCGCCGAUGACUCAGUAAAUAAUGUCAGGAAGGACGAUCCAACACUUCUGUCUUCAGGG | 0.247 ratio
GCUUUUCAAGCCAAGGAUGUGGAAGGAUCUACUUCUCCUCAAAUAGGAGAUAAGGUUGAAUUCCGUAUUAGUGACAAACAGAGGCCUGGACAGCAGAUUGCAACUUGCGUGAGACUUUUA | 0.199 ratio
ACCGCCAUCUACUGCUUCCUACGCUGCAUGGAGCCAGACCCUGAGAUCCCUUCUGCCUUCAACCGCCUCCAAAGGACUCUCAUUUAUUCCAUCUCACUUGGUGGGGACACAGACACCAUU | 0.231 ratio
GAUGAAGUCGUUACAUCGGAGGGAAAGACUAAGCCCCUCAUACCAGAGAUGUGUUUUAUUUACCGUGAAGAAAAUAUAGAAUAUUCUCCACCCAAUGCCUUCCUUGAAGAGGAUGGAACA | 0.0784 ratio
UUGCCUUUUCAGAGCAUGAGGUCAGGCUCUGUAUCCCUCCUUUUCCUAGCUGAUAUUCUAACCCGAAGCAUUUGUCAAUUCCUUUGCCUCCCAACUGACAACACACGUUCAUUUUCCAAC | 0.88 ratio

Series 3 — technique: DHFR PCA, deep sequencing; matrix: yeast; together with: (+)-ABA 200 µM; baseline: wild-type fitted maximum; direction: higher = stronger binding
Target: ABI1, truncated, D143A, DHFR fusion (Arabidopsis thaliana)
Setting: methotrexate growth selection, single substitutions
Starting sequence: PYL1, truncated, DHFR fusion (Arabidopsis thaliana); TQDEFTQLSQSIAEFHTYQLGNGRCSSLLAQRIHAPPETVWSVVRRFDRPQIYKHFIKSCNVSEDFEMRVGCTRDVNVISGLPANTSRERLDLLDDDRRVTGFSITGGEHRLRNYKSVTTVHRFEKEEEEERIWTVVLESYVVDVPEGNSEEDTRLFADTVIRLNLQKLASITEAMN; partner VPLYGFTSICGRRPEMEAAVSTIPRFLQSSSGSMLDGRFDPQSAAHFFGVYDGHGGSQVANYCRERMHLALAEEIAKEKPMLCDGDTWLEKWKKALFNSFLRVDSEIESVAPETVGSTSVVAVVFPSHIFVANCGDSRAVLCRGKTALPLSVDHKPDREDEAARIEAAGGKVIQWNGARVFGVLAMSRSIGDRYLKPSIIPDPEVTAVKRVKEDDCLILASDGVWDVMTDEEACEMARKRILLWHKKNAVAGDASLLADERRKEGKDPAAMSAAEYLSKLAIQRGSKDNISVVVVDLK
Substitution | relative binding score [%]
V100I | 106
G23Y | 83.2
D75Q | 108
S26M | 90.6
K54G | -0.313
D144C | 73
V78R | 11.9
Q51I | 53.1
N165W | -1.06
I133V | 115
F157I | 82.2
G102S | 108
R69F | 91.8

Series 4 — technique: RNAcompete; form: RNA; matrix: in vitro; concentration: 20 nM; setting: 7-mer, probes averaged, single round; baseline: mean of 7-mers; direction: higher = stronger binding
Target: PABPC1L2, full length, GST fusion (mouse, UniProt A0ABA7IW68)
Target sequence (chain): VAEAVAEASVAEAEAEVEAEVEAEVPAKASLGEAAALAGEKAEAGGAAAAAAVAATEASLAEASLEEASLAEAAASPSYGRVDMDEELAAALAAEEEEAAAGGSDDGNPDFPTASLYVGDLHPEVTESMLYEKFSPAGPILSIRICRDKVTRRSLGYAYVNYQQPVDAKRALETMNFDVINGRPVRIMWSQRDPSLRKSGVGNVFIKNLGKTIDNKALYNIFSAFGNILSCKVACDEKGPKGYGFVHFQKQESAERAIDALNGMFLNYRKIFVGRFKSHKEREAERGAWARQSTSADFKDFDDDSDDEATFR
Oligonucleotide | 7-mer Z-score
CCAUAAU | -0.166
ACGGGUU | -0.0754
GGCAGCG | 0.175
UGUGUUA | -0.277
UUCGUAC | -0.275
CACUUGG | 0.0968
CGUAUUC | -0.322
ACCCAGU | -0.242
UUGGCCC | -0.291
GAUCGAA | 0.0551
AAAAGAC | 5.59
UUCGAGA | -0.0971
AUGUACA | -0.0826
UGUAUAA | 0.311
GCCCAUG | -0.407
GCUUUCC | -0.38
GCGGCGC | -0.142

Series 5 — technique: protein-binding microarray; form: double-stranded DNA, one strand shown; matrix: in vitro; concentration: 2200 nM top; setting: 60-bp whole probe; together with: salmon DNA 0.4 mg/ml; baseline: random background probes; direction: higher = stronger binding; shared flanks, not repeated: GCCTAGCAC … GTCTTGATTCGCTTGACGCTGCTG
Target: Interferon regulatory factor 7, full length, phosphomimetic (IRF7, Homo sapiens, UniProt Q92985, residues 1-503, S471D/S472D/S475D/S476D/S477D/S483D/S484D/S487D)
Residues (chain): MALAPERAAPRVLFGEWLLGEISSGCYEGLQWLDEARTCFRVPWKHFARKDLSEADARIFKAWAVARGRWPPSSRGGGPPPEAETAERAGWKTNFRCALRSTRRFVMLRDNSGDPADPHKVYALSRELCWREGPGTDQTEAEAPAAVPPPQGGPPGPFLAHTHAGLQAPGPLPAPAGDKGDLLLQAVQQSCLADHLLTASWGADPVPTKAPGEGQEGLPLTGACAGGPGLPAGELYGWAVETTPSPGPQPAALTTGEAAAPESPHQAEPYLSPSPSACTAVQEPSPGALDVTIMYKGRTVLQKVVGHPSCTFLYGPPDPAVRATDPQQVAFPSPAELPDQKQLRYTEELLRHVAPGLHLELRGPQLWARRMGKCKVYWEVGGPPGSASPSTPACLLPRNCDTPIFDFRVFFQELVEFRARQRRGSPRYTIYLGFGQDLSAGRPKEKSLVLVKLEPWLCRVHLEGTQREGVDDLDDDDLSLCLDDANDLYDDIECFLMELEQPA
Oligonucleotide | fitted relative affinity [z-score]
GACGATTTCAGACTGGTGACGTGCTAG | 0.508
GGCGAACTGAGTTTCGAGACGTGCTAG | 1.66
TTAGGTTTCTTTTATTCAAAGTGCTAG | 0.925
GACGGTATGGACTTTCGGGACGTGCTA | 2.36
GGTTTTTTTTTAATTGAAATGTGCTAG | 0.845
TTAGTTTTCAATTTTTGCATGTGCTAG | 1.92
GACGGACTGGAACTGGGGACGTGCTAG | -0.823
TTAGAAATGGGGTATCGATTAGTGCTA | 0.095
TTAGGTTCCCTTTTCCTATAGTGCTAG | 2.99
GACGATATGGGGACTGGAGACGTGCTA | -0.0822
TTAGGTATCTACACTGGGTTAGTGCTA | 0.0223
TTAGGACGGGGTTTCGGTTAGTGCTAG | 3.73
GACGACCTGGGGTTTCGAGACGTGCTA | 0.675
TAAGGTATCGGTATCGGTTAGTGCTAG | 0.876
TCACCTTGCTTTATGTGACTGTGCTAG | 1.87
TCATGACACCGATTTCATACTGTGCTA | 1.18
CTCGGGACAGGCACTCTACGGTGCTAG | -0.992
GACGGTCTAGGTATCGGGACGTGCTAG | -0.38
TTAGGTTTCCGTCTCCTTTAGTGCTAG | 2.78
TTAGATATCGGGTTTCTATTAGTGCTA | 1.19

Excerpt of the above (series 3):
Substitution | relative binding score [%]
N165W | -1.06
I133V | 115
F157I | 82.2
G102S | 108
R69F | 91.8
